Published values of several laboratories.
Numbered parts are unrelated; each lists some results of a single study. Substitutions count along the parent as printed.

Series 1 — technique: RNA Bind-n-Seq; molecule type: RNA; matrix: in vitro; tested at: 1 µM; notes: whole 134-nt RNA, ends assumed; added: 150 mM KCl; baseline: input library; direction: higher = stronger binding; endpoint: log2 enrichment
Target: Ras GTPase-activating protein-binding protein 1, C-terminal RGG region (G3BP1, Homo sapiens, UniProt Q13283)
Sequence of UniProt Q13283 (whole entry, looked up): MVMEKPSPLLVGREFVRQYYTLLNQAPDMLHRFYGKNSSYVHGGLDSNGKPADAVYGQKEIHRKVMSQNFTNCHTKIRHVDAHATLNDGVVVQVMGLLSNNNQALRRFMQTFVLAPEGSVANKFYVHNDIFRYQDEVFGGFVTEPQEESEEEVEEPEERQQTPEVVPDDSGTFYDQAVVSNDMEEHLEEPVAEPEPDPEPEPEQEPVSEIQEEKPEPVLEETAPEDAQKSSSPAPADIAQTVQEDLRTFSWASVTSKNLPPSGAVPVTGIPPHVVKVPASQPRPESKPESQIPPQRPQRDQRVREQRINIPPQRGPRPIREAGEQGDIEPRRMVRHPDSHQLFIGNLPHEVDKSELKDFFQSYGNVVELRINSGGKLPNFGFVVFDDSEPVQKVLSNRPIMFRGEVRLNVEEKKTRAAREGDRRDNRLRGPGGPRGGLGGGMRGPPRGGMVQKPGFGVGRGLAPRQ
Shared flanks, not repeated: GGGAGUUCUACAGUCCGACGAUC … UGGAAUUCUCGGGUGUCAAGG
CACAGACAACACGCACCCAAAAAGACACAGAGGGAAGGGGUUGGGAUGGGGACAGGGUGCACAGCAGGGCGGGGUAGGACCCCAGCCCCU: -0.326
UAACUUUAGAGGAGGAUCUGAUGGAUAUGGCAGUGGACGUGGAUUUGGGCAUGGCUAUAAUGGGUAUGGAGGAGGACCUGGAGGUGGCAA: -0.765
CACAGACAAAACGCACCCACACAGACACAGAGGGAAGGGGUUGGGAUGGGGACAGGGUGCACAGCAGGGCGGGGUAGGACCCCAGCCCCU: -0.281
CAAGUCCUGUGCUACACAUCGUAUGUACCGAAUCGGUUUUUGGAAAGGAAAAAGGAAAGUAUUAUGUUACGCCGUUCGGAUCUGCACUUC: -1.74
ACCAGGCAGGUGGGCAUCUUUGGGAAGUGGGGCAAGGGGGGGAUAGGGAGGGGGGUAACACUUUGGGAACAGGUGGUCCCAGGUCGUUUC: -1.08
UGGGAGGUGGAUUUUGUUUAUUUUUUUAGCUCAUUUCCAGGGGUGGGAAUGUUUUUUUAAUAUGUGUCAUGAAUAAAGUUGUUUUUGAAA: 4.08
AGUCCUGUGCUACACAUCGUAUGUACCGAAUCGGGCCCCCGGCCCCCGGGGCCCCCGGAAAGUAUUAUGUUACGCCGUUCGGAUCUGCAC: -1.87
CACAGACAACACGCACCCACACAGACACAGAGGGAAGGGGUUGGGAUGGGGACAGGGUGCAGAGCAGGGCGGGGUAGGACCCCAGCCCCU: -0.465
GUCCUGUGCUACACAUCGUAUGUACCGAAUCGGGGUGGGGAAAAAGGGGAAAAAGGGGAAAGUAUUAUGUUACGCCGUUCGGAUCUGCAC: 1.19
AAGUCCUGUGCUACACAUCGUAUGUACCGAAUCGGGAGGGUUUUUGGGUUUUUGGGAAAGUAUUAUGUUACGCCGUUCGGAUCUGCACUU: -0.135

Series 2 — technique: RNA Bind-n-Seq; molecule type: RNA; matrix: in vitro; tested at: 365 nM; baseline: no-protein control; direction: higher = stronger binding; endpoint: RBNS enrichment (R)
Target: RNA binding protein fox-1 homolog 2, RRM domain, GST-SBP tag (RBFOX2, Homo sapiens, UniProt O43251-10, residues 100-194)
Notes: natural RNA segment, single round, ends assumed
Shared flanks, not repeated: GGGAGUUCUACAGUCCGACGAUC … UGGAAUUCUCGGGUGCCAA
Residues (chain): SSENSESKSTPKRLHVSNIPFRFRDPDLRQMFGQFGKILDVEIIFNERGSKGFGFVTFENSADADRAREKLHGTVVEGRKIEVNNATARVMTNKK
AGCAACUUUGCUCUCCCUGCCGUGCCUCGGUGGUGCUCCUGAAUGUGGCUGACCUGGGCUGCUGGUUCCGUUGACUAGGGUCAUCUUGAUCUCUGCAGUUUGCUCCAGCU: 0.411
AGUGUAGGGCAGAGCGUUGACCCACUGGCUAGUGCUUGACUUGGGAAUCAGGACAGUACCUGUACAGGCACGGGGACCCGCUCCGUCCGUGCGCCGCCCUAUAUUGAGGG: 0.767
CGUUGUAUUAAAAACAAGAUAAAAAAGCUGCCAAGAUUUUUGGCGAGUGGUUGGUCUGAAGUCCUUGCAAGACGCUGAUGCUCAAGCUGUUGACAUACUCAUUGCCUACU: 0.292
AUGGACAUCUUACACCCGGUGGUCAAGUGUGUAAUAAACUUGAGCAUUCGAAUGGGAGAAAAAGCAAAUCGCACAAUGACAUAUUUUGAGUAAUAACCGUAUUUUUCACA: 0.642
AGGUAAGUUAAGUAAGUUGAUUCGGUAUCCCCCCAUCUUGCUUCCCUAAUCUAUGGUCGGGAGACAGCAUCAGGGUUAAGAAGACUUUUUUUUUUUUUUUUUAAACUAGG: 0.589
CUUGGACCUCUACCAAAACAUAUGAUACAGAAAACCAGGAAACGUAAAUAUUUUCACCACGAUCGAUUAGACUGGGAUGAACACAGUUCUGCCGGCAGAUAUGUUUCAAG: 0.356
CACUCUGGCCACAGGUGACACUUGGUCCUUGCUGCCACCUGCUUGGGGCUAUGUGGCUACGGCUACACAAAAGCCUGUGCAGGUUAGAAGACGACUGUGGUGUGCAGUGG: 0.405
GCAGAGGCAUAAUCCAGAUAAGUAGCAGAUGUCAUAUUUCAUAAGCUCUUUUGGCCUGGGUACAGCAGAAAACUAGCAGUUUUCCUACUUGGCGCAAGUGACUUGUGCCU: 0.323
GAGUCACCCCUACUUCCUGGAUAGUAGGCUUUUUUAGUUGUGUGUUUUGUUUUGAGACAGUGUCUCACUUUGUAGCUGUGGCUAUCCUGGAACUCAAUCAGUAGAUGCCC: 0.72
AUACCAUUCUGUCUUUUAGACUUUCAACAUCUGCUAUGGUGGAGCACAAAUGUUAUUUAAAAGCAUCUUCUCACCUACAUAGAAGUAAACAAAACACACAAUUUGGGAUU: 0.545
UUGUUGACACUUUAAUUUUGCUAUAAAUGUGUGGAAUCACAAGUUGCUGUGAUACUUCAUUUUUAAAUUGUGAACUUUGUACAAACUUUGUCAUGCUGAUGUGAACACAU: 0.414
ACACAUUCCCGGUGAUAGAAUUGCUAAAUUGUCGUGAAAUAGGUUAGAAUUUUUCUUUAAAUUAUGGUUUUCUUAUUCGUGAAAAUUCGGAGAGUGCUGCUAAAAUUGGA: 0.834

Series 3 — target: CCNA2, cyclin fold, Cln2 fusion (human); technique: yeast growth competition, sequencing; matrix: yeast; notes: strong parent motif; baseline: not given; direction: higher = stronger binding; endpoint: normalised enrichment score
Starting sequence: RBL2 docking peptide (human); STTRRRLFVENDS; partner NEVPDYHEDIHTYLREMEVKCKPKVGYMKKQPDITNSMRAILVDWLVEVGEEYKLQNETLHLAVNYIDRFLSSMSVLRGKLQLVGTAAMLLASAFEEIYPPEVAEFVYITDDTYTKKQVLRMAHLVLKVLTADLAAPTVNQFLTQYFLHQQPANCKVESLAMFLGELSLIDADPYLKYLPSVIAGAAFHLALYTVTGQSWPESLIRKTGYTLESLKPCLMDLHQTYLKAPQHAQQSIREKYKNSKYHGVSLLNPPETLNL
STTRRRLFVELDS [N11L]: 5.78
STTKRRLFVENDS [R4K]: 4.57
STTRRTLFVENDS [R6T]: 2.59
DTTRRRLFVENDS [S1D]: 3.8
STTRRRLFVCNDS [E10C]: 4.47
STTRRRLFVKNDS [E10K]: 3.68
STTRRILFVENDS [R6I]: 2.38
STTRFRLFVENDS [R5F]: -0.676
STTRRRLFVINDS [E10I]: 3.58
STTRRRLFVEFDS [N11F]: 5.98
STTHRRLFVENDS [R4H]: 2.13
STTRRRLFVENPS [D12P]: 5.74
STTRRRLFVEVDS [N11V]: 6.14
STTRRRLFVEPDS [N11P]: 6.85
STTRRPLFVENDS [R6P]: 1.45
STTPRRLFVENDS [R4P]: 0.676
STTRRRLFVERDS [N11R]: 5.61
STTRRRLFVENDI [S13I]: 5.96
SNTRRRLFVENDS [T2N]: 6.36
STTRRRLFVENDV [S13V]: 5.31
STTRRRLFVENDY [S13Y]: 5.91
STARRRLFVENDS [T3A]: 6.11
STTRRRLFVENHS [D12H]: 5.55
STTRRRLFVENQS [D12Q]: 5.04
STPRRRLFVENDS [T3P]: 4.29

Series 4 — technique: protein binding microarray; molecule type: double-stranded DNA, one strand shown; matrix: in vitro; tested at: not given; baseline: not given; direction: higher = stronger binding; endpoint: E-score
Target: Histone acetyltransferase KAT6A, winged helix 2, GST fusion (KAT6A, Homo sapiens, UniProt Q92794, residues 85-181)
Notes: 8-mer, flanks averaged, mean of 2 arrays, mostly near background
Target sequence (chain): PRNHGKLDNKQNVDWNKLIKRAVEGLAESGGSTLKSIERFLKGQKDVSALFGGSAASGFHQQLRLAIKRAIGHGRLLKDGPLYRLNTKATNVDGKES
CGTATAGC: 0.113
ACAACCGA: 0.0443
ACGCCTCC: -0.0101
AACGTGTC: -0.202
TACAGGGA: -0.0728
CGGCGTTA: 0.00434
TATATGGA: -0.0604
CCCGTAGG: 0.0873
ATCACATC: -0.185
CTGAAGGC: -0.0347
ACTGTTTC: -0.0641
ATACACGG: -0.205
ACTAAGCA: 0.0663
ACCTGATC: -0.0543
ACCCGGCC: 0.155
CGCAGCGA: 0.199
ACCGCCTA: 0.127

Some of these lines once more (series 1):
CACAGACAAAACGCACCCACACAGACACAGAGGGAAGGGGUUGGGAUGGGGACAGGGUGCACAGCAGGGCGGGGUAGGACCCCAGCCCCU: -0.281
CAAGUCCUGUGCUACACAUCGUAUGUACCGAAUCGGUUUUUGGAAAGGAAAAAGGAAAGUAUUAUGUUACGCCGUUCGGAUCUGCACUUC: -1.74
AGUCCUGUGCUACACAUCGUAUGUACCGAAUCGGGCCCCCGGCCCCCGGGGCCCCCGGAAAGUAUUAUGUUACGCCGUUCGGAUCUGCAC: -1.87
GUCCUGUGCUACACAUCGUAUGUACCGAAUCGGGGUGGGGAAAAAGGGGAAAAAGGGGAAAGUAUUAUGUUACGCCGUUCGGAUCUGCAC: 1.19
AAGUCCUGUGCUACACAUCGUAUGUACCGAAUCGGGAGGGUUUUUGGGUUUUUGGGAAAGUAUUAUGUUACGCCGUUCGGAUCUGCACUU: -0.135
UAACUUUAGAGGAGGAUCUGAUGGAUAUGGCAGUGGACGUGGAUUUGGGCAUGGCUAUAAUGGGUAUGGAGGAGGACCUGGAGGUGGCAA: -0.765
CACAGACAACACGCACCCACACAGACACAGAGGGAAGGGGUUGGGAUGGGGACAGGGUGCAGAGCAGGGCGGGGUAGGACCCCAGCCCCU: -0.465
CACAGACAACACGCACCCAAAAAGACACAGAGGGAAGGGGUUGGGAUGGGGACAGGGUGCACAGCAGGGCGGGGUAGGACCCCAGCCCCU: -0.326
UGGGAGGUGGAUUUUGUUUAUUUUUUUAGCUCAUUUCCAGGGGUGGGAAUGUUUUUUUAAUAUGUGUCAUGAAUAAAGUUGUUUUUGAAA: 4.08
ACCAGGCAGGUGGGCAUCUUUGGGAAGUGGGGCAAGGGGGGGAUAGGGAGGGGGGUAACACUUUGGGAACAGGUGGUCCCAGGUCGUUUC: -1.08
